Measurements pooled from the literature.
Compare with care: the assays were run in different laboratories. “And” joins repeats or separate records; there may be more than shown. ± gives the spread as reported.
CDK9 with cyclin T1: Cyclin-dependent kinase 9, with cyclin T1 (CDK9, Homo sapiens, UniProt P50750)
UniProt P50750, sequence (whole entry, looked up): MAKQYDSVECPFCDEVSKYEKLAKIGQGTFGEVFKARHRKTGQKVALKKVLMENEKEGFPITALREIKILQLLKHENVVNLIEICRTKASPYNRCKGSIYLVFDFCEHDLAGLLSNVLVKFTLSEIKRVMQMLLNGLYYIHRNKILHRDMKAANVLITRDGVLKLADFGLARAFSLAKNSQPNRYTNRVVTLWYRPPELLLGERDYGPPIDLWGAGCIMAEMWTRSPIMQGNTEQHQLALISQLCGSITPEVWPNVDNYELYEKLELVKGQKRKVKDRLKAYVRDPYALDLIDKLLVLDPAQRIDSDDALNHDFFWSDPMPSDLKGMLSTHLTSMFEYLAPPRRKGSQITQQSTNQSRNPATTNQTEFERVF
NR1I2: Nuclear receptor subfamily 1 group I member 2 (NR1I2, Homo sapiens, UniProt O75469)
UniProt O75469, sequence (whole entry, looked up): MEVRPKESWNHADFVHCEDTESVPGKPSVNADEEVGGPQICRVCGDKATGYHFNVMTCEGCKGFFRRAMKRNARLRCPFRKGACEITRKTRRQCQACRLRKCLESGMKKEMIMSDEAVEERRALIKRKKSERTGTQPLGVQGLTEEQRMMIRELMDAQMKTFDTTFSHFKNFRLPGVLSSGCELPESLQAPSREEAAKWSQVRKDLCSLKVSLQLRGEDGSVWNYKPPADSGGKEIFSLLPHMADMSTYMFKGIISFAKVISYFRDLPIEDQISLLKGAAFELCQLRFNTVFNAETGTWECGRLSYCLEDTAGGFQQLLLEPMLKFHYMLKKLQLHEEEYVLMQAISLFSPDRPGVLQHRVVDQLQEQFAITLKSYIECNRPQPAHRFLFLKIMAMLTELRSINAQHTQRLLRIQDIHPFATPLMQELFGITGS
UniProt O77389, sequence (whole entry, looked up): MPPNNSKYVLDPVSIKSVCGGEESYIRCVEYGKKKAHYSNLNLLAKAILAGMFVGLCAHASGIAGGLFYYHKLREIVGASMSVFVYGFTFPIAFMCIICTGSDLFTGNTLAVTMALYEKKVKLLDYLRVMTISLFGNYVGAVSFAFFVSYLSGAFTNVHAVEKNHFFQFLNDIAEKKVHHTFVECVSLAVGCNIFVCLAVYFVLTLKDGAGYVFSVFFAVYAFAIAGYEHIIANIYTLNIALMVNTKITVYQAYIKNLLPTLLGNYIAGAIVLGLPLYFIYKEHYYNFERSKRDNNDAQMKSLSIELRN
UniProt P33033, sequence (whole entry, looked up): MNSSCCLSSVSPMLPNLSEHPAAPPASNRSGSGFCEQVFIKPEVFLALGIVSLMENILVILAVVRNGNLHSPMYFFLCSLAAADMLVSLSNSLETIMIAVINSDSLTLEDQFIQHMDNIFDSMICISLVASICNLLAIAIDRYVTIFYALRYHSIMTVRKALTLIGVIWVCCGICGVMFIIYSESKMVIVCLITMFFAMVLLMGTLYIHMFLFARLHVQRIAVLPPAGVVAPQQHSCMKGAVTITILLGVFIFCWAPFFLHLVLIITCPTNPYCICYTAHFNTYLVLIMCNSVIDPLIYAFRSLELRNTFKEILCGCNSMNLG
UniProt Q92847, sequence (whole entry, looked up): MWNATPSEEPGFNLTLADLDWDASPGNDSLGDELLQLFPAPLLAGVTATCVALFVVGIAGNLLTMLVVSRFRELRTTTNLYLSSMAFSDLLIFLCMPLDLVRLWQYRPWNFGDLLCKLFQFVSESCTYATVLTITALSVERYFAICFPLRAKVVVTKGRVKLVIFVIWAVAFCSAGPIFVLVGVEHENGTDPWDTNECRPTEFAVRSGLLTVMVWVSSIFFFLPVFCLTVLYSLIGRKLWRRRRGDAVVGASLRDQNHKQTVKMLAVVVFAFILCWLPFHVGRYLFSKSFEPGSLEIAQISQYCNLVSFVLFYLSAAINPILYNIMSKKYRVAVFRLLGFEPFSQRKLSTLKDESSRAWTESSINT
UniProt Q13258, sequence (whole entry, looked up): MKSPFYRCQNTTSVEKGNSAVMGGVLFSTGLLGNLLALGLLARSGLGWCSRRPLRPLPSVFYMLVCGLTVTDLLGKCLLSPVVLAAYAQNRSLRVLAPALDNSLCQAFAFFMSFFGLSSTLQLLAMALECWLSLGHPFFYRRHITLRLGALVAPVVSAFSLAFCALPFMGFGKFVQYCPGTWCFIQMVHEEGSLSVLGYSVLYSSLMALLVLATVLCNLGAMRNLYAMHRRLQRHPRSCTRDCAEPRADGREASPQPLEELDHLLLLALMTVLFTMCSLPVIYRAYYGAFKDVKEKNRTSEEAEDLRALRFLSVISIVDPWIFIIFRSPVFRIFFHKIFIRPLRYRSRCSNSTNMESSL
UniProt P45983, sequence (whole entry, looked up): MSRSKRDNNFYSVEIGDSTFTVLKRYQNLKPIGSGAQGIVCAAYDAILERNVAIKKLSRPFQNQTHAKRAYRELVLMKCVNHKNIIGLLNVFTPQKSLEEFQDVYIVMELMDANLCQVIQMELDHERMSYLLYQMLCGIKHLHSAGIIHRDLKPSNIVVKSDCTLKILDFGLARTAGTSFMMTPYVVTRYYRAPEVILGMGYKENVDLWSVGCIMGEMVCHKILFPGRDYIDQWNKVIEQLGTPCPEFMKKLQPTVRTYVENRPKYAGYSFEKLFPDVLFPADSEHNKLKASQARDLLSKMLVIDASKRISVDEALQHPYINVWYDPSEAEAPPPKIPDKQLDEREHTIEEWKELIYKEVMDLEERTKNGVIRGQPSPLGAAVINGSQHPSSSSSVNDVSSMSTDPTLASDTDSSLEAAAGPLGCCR
UniProt Q9Y210, sequence (whole entry, unmodified, looked up): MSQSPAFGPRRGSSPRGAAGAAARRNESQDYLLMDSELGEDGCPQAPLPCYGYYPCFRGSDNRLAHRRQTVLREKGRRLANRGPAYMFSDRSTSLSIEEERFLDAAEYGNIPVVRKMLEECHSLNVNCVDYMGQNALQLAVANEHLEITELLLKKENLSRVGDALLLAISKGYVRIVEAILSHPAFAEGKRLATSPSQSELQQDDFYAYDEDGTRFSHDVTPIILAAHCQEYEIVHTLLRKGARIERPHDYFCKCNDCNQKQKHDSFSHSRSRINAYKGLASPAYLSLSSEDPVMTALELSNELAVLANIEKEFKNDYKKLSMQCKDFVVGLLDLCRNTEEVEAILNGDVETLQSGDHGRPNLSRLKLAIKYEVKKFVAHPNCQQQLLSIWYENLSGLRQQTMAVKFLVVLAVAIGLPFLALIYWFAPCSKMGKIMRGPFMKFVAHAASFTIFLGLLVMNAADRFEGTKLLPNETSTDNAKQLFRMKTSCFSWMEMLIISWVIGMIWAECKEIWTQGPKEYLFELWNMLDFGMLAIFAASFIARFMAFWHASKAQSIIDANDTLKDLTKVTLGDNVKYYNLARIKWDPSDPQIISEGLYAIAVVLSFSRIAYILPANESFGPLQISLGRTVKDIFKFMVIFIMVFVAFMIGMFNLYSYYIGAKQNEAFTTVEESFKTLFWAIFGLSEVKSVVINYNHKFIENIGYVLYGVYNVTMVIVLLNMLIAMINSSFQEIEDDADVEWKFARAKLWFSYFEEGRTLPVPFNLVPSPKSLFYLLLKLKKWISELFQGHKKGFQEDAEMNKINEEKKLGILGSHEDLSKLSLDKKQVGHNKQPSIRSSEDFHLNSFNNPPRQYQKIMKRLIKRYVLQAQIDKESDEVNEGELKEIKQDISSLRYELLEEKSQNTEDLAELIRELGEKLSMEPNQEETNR
UniProt Q9NXA8, sequence (whole entry, looked up): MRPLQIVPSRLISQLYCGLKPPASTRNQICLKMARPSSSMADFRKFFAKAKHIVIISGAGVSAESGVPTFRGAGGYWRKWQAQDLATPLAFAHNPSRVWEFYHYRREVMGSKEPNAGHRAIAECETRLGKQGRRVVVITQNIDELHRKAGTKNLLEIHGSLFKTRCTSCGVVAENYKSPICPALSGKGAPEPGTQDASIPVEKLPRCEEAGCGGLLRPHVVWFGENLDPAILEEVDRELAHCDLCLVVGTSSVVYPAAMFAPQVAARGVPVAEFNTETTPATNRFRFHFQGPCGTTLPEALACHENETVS

| Compound | target | assay | system | setting | EC50 |
| --- | --- | --- | --- | --- | --- |
| O=C(O)/C=C/c1cccc(NC(=O)c2cc(-c3ccccc3)ccc2F)c1 | Prostaglandin D2 receptor (PTGDR, Homo sapiens, UniProt Q13258) | calcium signal, agonist, fluorescence |  |  | > 10 µM |
| Clc1ccc2ccc3[n+](c2c1)[Ir-3]12([c]4ccccc4-3)([c]3ccccc3-c3ccc4ccc(Cl)cc4[n+]31)[n+]1ccccc1-c1cccc[n+]12.F[P-](F)(F)(F)(F)F | CDK9 with cyclin T1 | enzyme activity, inhibitor |  |  | 0.0033 ± 0.0012 µM |
| O=C(C1CCCCC1)N1CC(=O)N2CCc3ccccc3[C@@H]2C1 | Transient receptor potential channel TRPM(PZQ) (Schistosoma haematobium, UniProt A0A922ISR7) | cytoplasmic Ca2+ increase, agonist, FLIPR | HEK293 transiently expressing target |  | 0.221 ± 0.085 µM |
| COC(=O)[C@]1(C)C=C(C(=O)Nc2cccc(C(=O)Nc3ccc(Nc4nccc(-c5cccnc5)n4)c(C)c3)c2)C(=O)CC1 | Mitogen-activated protein kinase 8 (MAPK8, Homo sapiens, UniProt P45983) | target engagement, NanoBRET | HEK293 | 2 h, added: tracer K-5 | 0.0033 ± 0.0017 µM |
| CO[C@H]1/C=C/O[C@@]2(C)Oc3c(C)c(O)c4c(c3C2=O)C(=O)C(Br)=C(NC(=O)/C(C)=C\C=C\[C@H](C)[C@H](O)[C@@H](C)[C@@H](O)[C@@H](C)[C@H](OC(C)=O)[C@@H]1C)C4=O | NR1I2 | reporter gene, agonist, CYP3A4 promoter luciferase | 293T | 24 h, 5% charcoal-stripped FBS | 0.137 ± 0.04 µM |
| O=C(/C=C(\O)C(F)(F)C(F)(F)F)c1cccnc1 | Formate-nitrite transporter (Plasmodium falciparum, UniProt O77389) | cell viability, resazurin | yeast expressing Formate-nitrite transporter | 72 h, L-lactate medium | 0.06 µM |
| C[C@@H]1NC(=O)[C@H](CC(N)=O)NC(=O)[C@H](Cc2c[nH]c3ccccc23)NC(=O)[C@H](CCCNC(=N)N)NC(=O)[C@@H](Cc2ccccc2)NC(=O)[C@H](Cc2c[nH]cn2)NC(=O)[C@@H](NC(=O)[C@@H](N)Cc2ccc(O)cc2)Cn2cc(nn2)C[C@@H](C(=O)N[C@@H](Cc2ccc(O)cc2)C(N)=O)NC(=O)[C@H](Cc2ccccc2)NC1=O | Melanocortin receptor 3 (Mus musculus, UniProt P33033) | agonist |  |  | 0.028 ± 0.0054 µM |
| CCC(=O)N(C)c1ccc(Cl)c(Cl)c1 | NR1I2 | reporter gene, agonist, luciferase |  |  | 38 µM and 38.1 µM |
| O=C(c1cc2c(s1)CCCCC2)N1CCC(n2c(=O)[nH]c3ccccc32)CC1 | Short transient receptor potential channel 6 (TRPC6, Homo sapiens, UniProt Q9Y210, N702Q) | channel activation, agonist, whole-cell patch clamp |  |  | 3.07 ± 0.81 µM |
| COc1ccc(C(=O)c2c(C(=O)NCCCN(C)C)oc3ccc(Cl)cc3c2=O)cc1OC | Growth hormone secretagogue receptor type 1 (GHSR, Homo sapiens, UniProt Q92847) | calcium signal, agonist |  |  | ~0.035 µM |
| COc1cc[n+]2c3c1ccc1c(OC)cc[n+](c13)[Rh-3]213([c]2ccccc2-c2ccc4ccc(Cl)cc4[n+]21)[c]1ccccc1-c1ccc2ccc(Cl)cc2[n+]13.F[P-](F)(F)(F)(F)F | CDK9 with cyclin T1 | enzyme activity, inhibitor |  |  | > 1 µM |
| O=C(O)CCNC(=S)NCCCC[C@H](NS(=O)(=O)c1cccc(F)c1)C(=O)N[C@@H](Cc1c[nH]c2ccccc12)C(=O)NC1CCC1 | NAD-dependent protein deacylase sirtuin-5, mitochondrial (SIRT5, Homo sapiens, UniProt Q9NXA8) | thermal stabilisation, ITDRF-CETSA | HEK293T | 2 h, 52 °C | 0.9 µM |

For quick reference, copied from above:
| Compound | target | assay | system | setting | EC50 |
| --- | --- | --- | --- | --- | --- |
| O=C(/C=C(\O)C(F)(F)C(F)(F)F)c1cccnc1 | Formate-nitrite transporter (Plasmodium falciparum, UniProt O77389) | cell viability, resazurin | yeast expressing Formate-nitrite transporter | 72 h, L-lactate medium | 0.06 µM |
| C[C@@H]1NC(=O)[C@H](CC(N)=O)NC(=O)[C@H](Cc2c[nH]c3ccccc23)NC(=O)[C@H](CCCNC(=N)N)NC(=O)[C@@H](Cc2ccccc2)NC(=O)[C@H](Cc2c[nH]cn2)NC(=O)[C@@H](NC(=O)[C@@H](N)Cc2ccc(O)cc2)Cn2cc(nn2)C[C@@H](C(=O)N[C@@H](Cc2ccc(O)cc2)C(N)=O)NC(=O)[C@H](Cc2ccccc2)NC1=O | Melanocortin receptor 3 (Mus musculus, UniProt P33033) | agonist |  |  | 0.028 ± 0.0054 µM |
